Experimental data from different studies.
± marks the error that the study gave. Converted amounts (≈) assume the structure as drawn.
Chain of UniProt P48546 (whole entry, looked up): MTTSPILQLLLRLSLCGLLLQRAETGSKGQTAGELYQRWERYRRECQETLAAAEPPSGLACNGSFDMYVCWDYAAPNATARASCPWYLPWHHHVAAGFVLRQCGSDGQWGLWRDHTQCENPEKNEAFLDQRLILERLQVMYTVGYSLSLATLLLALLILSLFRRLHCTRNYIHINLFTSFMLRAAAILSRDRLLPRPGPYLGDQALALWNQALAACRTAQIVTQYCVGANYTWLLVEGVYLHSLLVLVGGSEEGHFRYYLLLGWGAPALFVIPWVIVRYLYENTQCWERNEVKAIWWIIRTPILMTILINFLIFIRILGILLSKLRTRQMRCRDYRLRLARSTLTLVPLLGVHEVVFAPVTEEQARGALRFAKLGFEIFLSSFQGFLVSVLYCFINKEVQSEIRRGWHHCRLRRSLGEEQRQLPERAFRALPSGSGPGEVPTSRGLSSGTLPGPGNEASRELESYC

SMILES = Cc1cc(/C=C/C#N)cc(C)c1-n1cnc2cnc(Nc3ccc(C#N)cc3)nc21; target or system = HIV-1; assay = viral replication, single-round infection; test system = RT mutant H221Y; endpoint = EC50; result = 1.3 ± 0.4 nM
SMILES = CC[C@H](C)[C@H](NC(=O)[C@H](CCCN)NC(=O)[C@H](CC(=O)O)NC(=O)[C@H](CC(C)C)NC(=O)C(C)(CC(C)C)NC(=O)[C@@H](NC(=O)[C@H](CO)NC(=O)[C@H](Cc1ccc(O)cc1)NC(=O)[C@H](CC(=O)O)NC(=O)[C@H](CO)NC(=O)[C@@H](NC(=O)[C@H](Cc1ccccc1)NC(=O)[C@@H](NC(=O)CNC(=O)[C@H](CCC(=O)O)NC(=O)C(C)(C)NC(=O)[C@@H](N)Cc1ccc(O)cc1)[C@@H](C)O)[C@@H](C)CC)[C@@H](C)CC)C(=O)N[C@@H](Cc1c[nH]cn1)C(=O)N[C@@H](CCC(N)=O)C(=O)NC(C)(C)C(=O)N[C@@H](CC(=O)O)C(=O)N[C@@H](Cc1ccccc1)C(=O)N[C@H](C(=O)N[C@@H](CCC(=O)O)C(=O)N[C@@H](Cc1ccc(O)cc1)C(=O)N[C@@H](CCCCNC(=O)COCCOCCNC(=O)COCCOCCNC(=O)CC[C@H](NC(=O)CCCCCCCCCCCCCCCCCCC(=O)O)C(=O)O)C(=O)N[C@@H](CC(C)C)C(=O)N[C@@H](CCC(=O)O)C(=O)NCC(=O)NCC(=O)N1CCC[C@H]1C(=O)N[C@@H](CO)C(=O)N[C@@H](CO)C(=O)NCC(=O)N[C@@H](C)C(=O)N1CCC[C@H]1C(=O)N1CCC[C@H]1C(=O)N1CCC[C@H]1C(=O)N[C@@H](CO)C(N)=O)C(C)C (stereo partly drawn); target or system = GIPR (Homo sapiens, UniProt P48546); assay = cAMP accumulation, agonist; test system = HEK293; setting = without serum albumin; scale = baseline: native human GIP, fold more potent; endpoint = relative potency; result = ~20 fold
SMILES = O=C(CSc1c[nH]c2ccccc12)NCc1ccc(Cl)c(Cl)c1; target or system = HEK293T; assay = Gaussia luciferase expression; setting = up to 10 µM, 24 h, without RdRp; endpoint = reporter expression; result = no effect
SMILES = CCCCCCCCCCCCCCCC(=O)N[C@@H](CCC(=O)NCCOCCOCCC(=O)NCCOCCOCCC(=O)NCCCC[C@H](NC(=O)[C@H](CC(=O)O)NC(=O)[C@H](CC(C)C)NC(=O)[C@H](Cc1ccc(O)cc1)NC(=O)[C@H](CCCCN)NC(=O)[C@H](CO)NC(=O)[C@H](Cc1ccc(O)cc1)NC(=O)[C@H](CC(=O)O)NC(=O)[C@H](CO)NC(=O)[C@@H](NC(=O)[C@H](Cc1ccccc1)NC(=O)[C@@H](NC(=O)CNC(=O)[C@H](CCC(N)=O)NC(=O)[C@@H](CO)NC(=O)[C@@H](N)Cc1c[nH]cn1)[C@@H](C)O)[C@@H](C)O)C(=O)N[C@@H](CCCNC(=N)N)C(=O)N[C@@H](CCCNC(=N)N)C(=O)N[C@@H](C)C(=O)N[C@@H](CCC(N)=O)C(=O)N[C@@H](CC(=O)O)C(=O)N[C@@H](Cc1ccccc1)C(=O)N[C@H](C(=O)N[C@@H](CCC(N)=O)C(=O)N[C@@H](Cc1c[nH]c2ccccc12)C(=O)N[C@@H](CC(C)C)C(=O)N[C@@H](CC(C)C)C(=O)N[C@@H](CC(N)=O)C(=O)N[C@H](C(=O)NCC(=O)NCC(=O)N1CCC[C@H]1C(=O)N[C@@H](CO)C(=O)N[C@@H](CO)C(=O)NCC(=O)N[C@@H](C)C(=O)N1CCC[C@H]1C(=O)N1CCC[C@H]1C(=O)N1CCC[C@H]1C(=O)N[C@@H](CO)C(N)=O)[C@@H](C)O)C(C)C)C(=O)O; test system = Sprague-Dawley rat, male; setting = subcutaneous, 500 µg/kg once daily, 14 days; endpoint = total cholesterol; result = 0.45 ± 0.1 mmol/L
SMILES = CC(=O)O[C@@H]1[C@@H](O)[C@H]2O[C@@H]3C=C(C)C(=O)[C@@H](O)[C@]3(CO)[C@]1(C)[C@]21CO1; target or system = HK-2; assay = cell growth or viability; endpoint = IC50; result = 350 nM
SMILES = O=C(CSc1[nH]c2ccccc2c1SCC(=O)Nc1ccc(Cl)c(Cl)c1)Nc1ccc(Cl)c(Cl)c1; target or system = HEK293T; assay = Gaussia luciferase expression; setting = up to 10 µM, 24 h, without RdRp; endpoint = reporter expression; result = no effect
SMILES = COc1cccc(NC(=S)NNC(=O)c2ccccn2)n1; target or system = Huh-7; assay = pseudovirus entry; setting = added: MERS-CoV spike pseudovirus; endpoint = EC50; result = 190 nM
SMILES = COc1ccc(-c2oc3c(CC=C(C)C)c(O[C@@H]4O[C@H](CO)[C@@H](O)[C@H](O)[C@H]4O)cc(O)c3c(=O)c2O[C@@H]2O[C@@H](C)[C@H](O)[C@@H](O)[C@H]2O[C@@H]2O[C@@H](C)[C@H](O)[C@@H](O)[C@H]2O)cc1; target or system = HEK293T; assay = entry of SARS-CoV-2 spike pseudotyped lentivirus; setting = 10 µM; endpoint = inhibition; result = 50 to 90%
SMILES = C[C@@H]1Cc2ccc(C(=O)N[C@@H](Cc3ccccc3)C(=O)O)c(O)c2C(=O)O1; target or system = HK-2; assay = cell growth or viability, SRB; setting = 24 h; endpoint = IC50; result = 37900 nM
SMILES = Cc1cc(/C=C/C#N)cc(C)c1Nc1nc(Nc2ccc(C#N)cc2)ncc1N; target or system = HIV-1; assay = viral replication, single-round infection; test system = RT mutant V106A/F227L; endpoint = EC50; result = 1.3 ± 0.4 nM
SMILES = CSCC[C@@H]1NC(=O)CNC(=O)[C@H](CCC(=O)O)NC(=O)[C@@H]2CSSC[C@H](NC(=O)[C@@H](N)Cc3ccc(O)cc3)C(=O)N[C@@H](CCC(N)=O)C(=O)N[C@@H](CCCCN)C(=O)N[C@@H](Cc3c[nH]c4ccccc34)C(=O)N[C@@H](CCSC)C(=O)N[C@@H](Cc3c[nH]c4ccccc34)C(=O)N[C@@H]([C@@H](C)O)C(=O)N[C@H]3CSSC[C@H](NC(=O)[C@H](C(C)C)NC1=O)C(=O)N[C@@H](CCCNC(=N)N)C(=O)N[C@@H](CC(C)C)C(=O)N[C@@H](Cc1c[nH]c4ccccc14)C(=O)N[C@H](C(=O)N[C@@H](CCCCN)C(=O)N[C@@H](CCCCN)C(=O)N[C@@H](CCCCN)C(=O)N[C@@H](CC(C)C)C(=O)N[C@@H](Cc1c[nH]c4ccccc14)C(=O)O)CSSC[C@H](NC(=O)[C@H](CCCCN)NC(=O)[C@H](CCCNC(=N)N)NC(=O)[C@H](CCC(=O)O)NC(=O)[C@H](CO)NC(=O)[C@H](CC(=O)O)NC3=O)C(=O)N2; target or system = ND7/23; assay = peak TTX-sensitive sodium current; setting = 0.001 µM, 1 peak; endpoint = inhibition; result = 5.6 ± 3.6%
SMILES = C[C@@H]1O[C@@H](O[C@H]2[C@H](O)[C@@H](O)[C@H](OC[C@H]3O[C@@H](O[C@H]4CC[C@@]5(C)[C@@H](CC[C@]6(C)[C@@H]5C=C[C@]57OC[C@@]8(CCC(C)(C)C[C@H]85)[C@@H](O)C[C@]76C)[C@]4(C)CO)[C@H](O)[C@@H](O)[C@@H]3O)O[C@@H]2CO)[C@H](O)[C@H](O)[C@H]1O; target or system = HEK293T; assay = entry of SARS-CoV-2 spike pseudotyped lentivirus; setting = 10 µM; endpoint = inhibition; result = 50 to 90%
SMILES = CC[C@H](C)[C@H](NC(=O)[C@H](CCCCN)NC(=O)[C@H](CCCCN)NC(=O)[C@H](CC(C)C)NC(=O)[C@H](Cc1c[nH]c2ccccc12)NC(=O)CN)C(=O)NCC(=O)N[C@@H](CCCCN)C(=O)N[C@@H](CCCCN)C(=O)N[C@H](C(=O)N[C@@H](CCC(=O)O)C(=O)N[C@@H](CCCNC(=N)N)C(=O)N[C@H](C(=O)NCC(=O)N[C@@H](CCC(N)=O)C(=O)N[C@@H](Cc1c[nH]cn1)C(=O)N[C@H](C(=O)N[C@@H](CCCNC(=N)N)C(=O)N[C@@H](CC(=O)O)C(=O)N[C@@H](C)C(=O)N[C@H](C(=O)N[C@H](C(=O)N[C@@H](CCC(N)=O)C(=O)N[C@H](C(=O)N[C@H](C(=O)NCC(=O)N[C@H](C(=O)N[C@@H](C)C(=O)N[C@@H](CCC(N)=O)C(=O)N[C@@H](CCC(N)=O)C(=O)N[C@@H](C)C(=O)N[C@@H](C)C(=O)N[C@@H](CC(N)=O)C(=O)N[C@H](C(=O)N[C@@H](C)C(=O)N[C@@H](C)C(=O)N[C@H](C(=O)N[C@@H](CC(C)C)C(=O)N[C@@H](CCCCN)C(N)=O)[C@@H](C)O)C(C)C)C(C)C)[C@@H](C)CC)[C@@H](C)O)[C@@H](C)CC)[C@@H](C)O)[C@@H](C)O)C(C)C)[C@@H](C)CC; target or system = Pseudomonas aeruginosa; test system = isolate RKI 93/12, CAMHB; endpoint = MIC; result = 128 µg/mL (≈ 30.5 µM)
SMILES = CC(=O)OC[C@]12[C@H](O)C(=O)C(C)=C[C@H]1O[C@@H]1[C@H](O)C[C@@]2(C)[C@]12CO2; target or system = HK-2; assay = cell growth or viability, SRB; setting = 24 h; endpoint = IC50; result = 3770 nM
SMILES = CC(C)C[C@H](NC(=O)[C@H](CC(=O)O)NC(=O)[C@H](CCC(=O)O)NC(=O)[C@H](C)NC(=O)[C@H](CCC(=O)O)NC(=O)[C@H](Cc1c[nH]cn1)NC(=O)[C@H](CC(N)=O)NC(=O)[C@H](Cc1ccccc1)NC(=O)[C@H](Cc1ccccc1)NC(=O)[C@H](CC(=O)O)NC(=O)[C@H](CC(C)C)NC(=O)[C@H](Cc1ccccc1)NC(=O)[C@@H](N)[C@@H](C)O)C(=O)N[C@@H](Cc1ccccc1)C(=O)N[C@@H](Cc1ccc(O)cc1)C(=O)N[C@@H](CSCc1ccc(S(=O)(=O)F)cc1)C(=O)O; target or system = HEK293T-ACE2; assay = pseudovirus infection; setting = concentration not given; endpoint = inhibition; result = 100%
